Published values gathered from unrelated publications.
Compare with care: the assays were run in different laboratories. Several values in a cell are separate wells, animals, samples, runs or records. Numbers after ± are the reported error. Values after ≈ are worked out from the molar mass of the structure shown.

For Nc1nc(-c2ccccc2)nc2[nH]nc(Nc3ccc(C(F)(F)F)cc3)c12, the clinical score was 0.67 (coxsackievirus B3; 31-1-93, NMRI mice, CVB3 chronic myocarditis; oral, 100 mg/kg twice daily, day 4, dosed days 1 to 7, score scale 0 to 7; direction not given).
For COC[C@H]1O[C@@H]2O[C@H]3[C@H](OC)[C@@H](OC)[C@@H](O[C@H]4[C@H](OC)[C@@H](OC)[C@@H](O[C@H]5[C@H](OC)[C@@H](OC)[C@@H](O[C@H]6[C@H](OC)[C@@H](OC)[C@@H](O[C@H]7[C@H](OC)[C@@H](OC)[C@@H](O[C@H]8[C@H](OC)[C@@H](OC)[C@@H](O[C@H]1[C@H](OC)[C@H]2OC)O[C@@H]8COC)O[C@@H]7COC)O[C@@H]6COC)O[C@@H]5COC)O[C@@H]4COC)O[C@@H]3COC, the inhibition was -4 ± 3% (Escherichia coli; LuxR reporter, antagonist; DH5α sensor strain; 20 µM, with: OHHL 200 nM).
[H]/N=C(\N/C(=N/[H])NCCCCCCNC(=N)NC(=N)Nc1ccc(Cl)cc1)Nc1ccc(Cl)cc1 — result for “cell surface hydrophobicity”: “decreased” (Streptococcus sobrinus; ATCC 33478; MIC; reference: control).
For COC(=O)[C@@H](CCSC)NCc1cc2ccccc2nc1SC, the growth was 101% (Pseudomonas aeruginosa; 8 µg/mL, with: pentamidine 50 µM; reference: control).
For O=C(O)c1cn(C2CC2)c2cc(N3CCNCC3)c(F)cc2c1=O, the cell area was 4.51 µm² and 4.25 µm² and 4.81 µm² (Bacillus subtilis; bacterial cytological profiling; ATCC 6633; concentration not given).
Cc1cc(OC(C)C)ccc1C(=O)C(C)(C)NC(=O)c1sccc1C gave an inhibition of 21.2 ± 21.1% (Botrytis cinerea; mycelial growth; B05.10; 0.001 µg/mL).
For C=CC[C@@H]1c2ccc(OC)c(OC)c2CN2CCc3cc4c(cc3[C@H]12)OCO4, “relative wound size” read 0.61 and 0.36 and 0.14 and 0.87 and 0.11 and 0.17 (Staphylococcus aureus; P2rx7+/+ mice, skin wound infection; dose not given, day 7; reference: day 0).
N#C[C@@]1(c2ccc3c(N)ncnn23)O[C@H](COC(=O)C2CCCCC2)[C@@H](O)[C@H]1O has an EC50 of 0.52 ± 0.088 µM (human respiratory syncytial virus; viral replication, viral protein ELISA; HEp-2, A2; 5 days).
CCn1c(=O)c(-c2cc[nH]n2)cc2c(C)nc(N)nc21: “cellular necrosis score” 0 (enterovirus A71; suckling mouse, EV71-infected, liver; 0.25 mg/kg; direction not given).
C[C@@H]1O[C@@H](OC[C@H]2O[C@@H](Oc3c(-c4ccc(O)c(O)c4)oc4cc(O)cc(O)c4c3=O)[C@H](O)[C@@H](O)[C@@H]2O)[C@H](O)[C@H](O)[C@H]1O: “initial rate of glycolytic pH drop” 0.031 pH units/min (Streptococcus sobrinus; MIC, first 15 min, with: glucose 1%).
With CC1(C)S[C@@H]2[C@H](NC(=O)[C@H](N)c3ccccc3)C(=O)N2[C@H]1C(=O)O the cell area was 2.97 µm² and 2.98 µm² and 2.76 µm² (Bacillus subtilis; bacterial cytological profiling; ATCC 6633; concentration not given).
For Cc1nc2[nH]c(=O)n(O)c(=O)c2s1, the growth inhibition was 30% (Amaranthus retroflexus; 1500 g/ha, 21 days, pre-emergence, glasshouse pot).
For CC1(C)S[C@@H]2[C@H](NC(=O)[C@H](N)c3ccccc3)C(=O)N2[C@H]1C(=O)O, the MIC was > 16 µg/mL (Pseudomonas aeruginosa; clinical isolate RKI-No_584/15).
NC(=O)c1ncn([C@@H]2O[C@H](CO)[C@@H](O)[C@H]2O)n1 has an EC50 of 26.6 ± 12.8 µM (human respiratory syncytial virus; viral replication, viral protein ELISA; HEp-2, A2; 5 days).
CC(=O)NC[C@H]1CN(c2ccc(N3CCOCC3)c(F)c2)C(=O)O1 has an MBC of 64 µM (≈ 21.6 µg/mL) (Staphylococcus aureus; broth microdilution; vancomycin-resistant VRS4).
Cn1cc(C(=O)C(=O)NCCc2c[nH]c3ccccc23)c2ccccc21 gave a killing of 80 to 95% (Pseudomonas putida, Escherichia coli; bactericidal activity; 3 x MIC, 2 h).
The DNA length of CN(C)[C@@H]1C(O)=C(C(N)=O)C(=O)[C@@]2(O)C(O)=C3C(=O)c4c(O)cccc4[C@@](C)(O)[C@H]3C[C@@H]12 is reported as 1.86 µm and 1.7 µm and 1.64 µm (Bacillus subtilis; bacterial cytological profiling; ATCC 6633).
Oc1cc(O)c2c(c1)O[C@H](c1cc(O)c(O)c(O)c1)[C@@H](O)C2 — result for “initial rate of glycolytic pH drop”: 0.041 pH units/min (Streptococcus sobrinus; MIC, first 15 min, with: glucose 1%).
For CO[C@H]1/C=C/O[C@@]2(C)Oc3c(C)c(O)c4c(O)c(c(/C=N/N5CCN(C)CC5)c(O)c4c3C2=O)NC(=O)/C(C)=C\C=C\[C@H](C)[C@H](O)[C@@H](C)[C@@H](O)[C@@H](C)[C@H](OC(C)=O)[C@@H]1C, the cell width was 0.86 µm and 0.88 µm (Bacillus subtilis; bacterial cytological profiling; ATCC 6633; concentration not given).
The EC50 of N#C[C@@]1(c2ccc3c(N)ncnn23)O[C@H](COC(=O)c2ccccc2)[C@@H](O)[C@H]1O is reported as 0.48 ± 0.052 µM (human respiratory syncytial virus; viral replication, viral protein ELISA; HEp-2, A2; 5 days).
Under “inhibition zone diameter”, O=C(O[C@@H]1O[C@@H]2COC(=O)c3cc(O)c(O)c(O)c3-c3c(cc(O)c(O)c3O)C(=O)O[C@H]([C@H]1O)[C@@H]2O)c1cc(O)c(O)c(O)c1 is recorded as 15.5 ± 1.5 mm (Streptococcus sobrinus; 500 µg/disc).
Under “viral attachment inhibition”, COc1cc([C@@H]2c3cc4c(cc3[C@H](O)[C@H]3COC(=O)[C@H]23)OCO4)cc(OC)c1OC is recorded as “inactive” (Dengue virus type 2; plaque; 0.1 µM).
C#CCOC(=O)ON=C1C=CC(=C(C#N)c2ccccc2)C=C1 gave an MFC of 16 µg/mL (≈ 52.6 µM) (Pichia norvegensis; broth dilution; ATCC 96139; 48 h, 37 °C).
With CC(C)n1ncc2c(C(=O)NCC3(C)CNC3)cc(C3CC3)nc21 the plaque area was 97.8% and 94.8% (enterovirus A71; Tainan/4643/1998; 0.03 µM).
For CCOC(=O)c1cc(-c2nc3ccccc3s2)c(=O)n(NS(=O)(=O)c2ccc(C)cc2)c1N, “viral load reduction” read 20% (hepatitis C virus; qRT-PCR; Huh7.5, genotype 4; concentration not given).
With N=C(N)c1ccc(OCc2ccc(Br)cc2COc2ccc(C(=N)N)cc2)cc1 the FICI was ≤ 0.047 (Escherichia coli; checkerboard; W3110; unit not given, with: rifampicin; lower = stronger synergy).
O=c1[nH]c2ncsc2c(=O)n1O has a growth inhibition of 100% (Amaranthus retroflexus; 1500 g/ha, 21 days, post-emergence, glasshouse pot).
Cc1ccc(N(c2ccc(NC(=O)CN(C)c3ccccc3N3CCCC3=O)cc2)C(C)C)cc1 — result for “time to complete clearance”: 96 h (Plasmodium falciparum; 3D7 asexual blood stage; 10 x EC50).
For Cc1ccc(NC(=O)N2Cc3[nH]cnc3C[C@H]2c2nc(-c3ccc4c(c3)OCO4)no2)cc1, the median lifespan was 21 days (Caenorhabditis elegans; N2; 6.25 µM).
The growth of COC(=O)[C@@H](NCc1cc2ccccc2nc1OCc1ccccc1)C(C)C is reported as 96.1% (Pseudomonas aeruginosa; 16 µg/mL, with: pentamidine 100 µM; reference: control).
The FICI of N=C(N)c1ccc(OCc2ccc(-c3ccccc3)cc2COc2ccc(C(=N)N)cc2)cc1 is reported as ≤ 0.031 (Escherichia coli; checkerboard; mcr-3 polymyxin-resistant; unit not given, with: rifampicin; lower = stronger synergy).

For quick reference, copied from above:
C[C@@H]1O[C@@H](OC[C@H]2O[C@@H](Oc3c(-c4ccc(O)c(O)c4)oc4cc(O)cc(O)c4c3=O)[C@H](O)[C@@H](O)[C@@H]2O)[C@H](O)[C@H](O)[C@H]1O: “initial rate of glycolytic pH drop” 0.031 pH units/min (Streptococcus sobrinus; MIC, first 15 min, with: glucose 1%).
With CC1(C)S[C@@H]2[C@H](NC(=O)[C@H](N)c3ccccc3)C(=O)N2[C@H]1C(=O)O the cell area was 2.97 µm² and 2.98 µm² and 2.76 µm² (Bacillus subtilis; bacterial cytological profiling; ATCC 6633; concentration not given).
